Experimental data collected from several papers.
Every numbered part comes from another study and shows a few of its results, in no order.

Sample 1 — technique: protein-binding microarray; form: double-stranded DNA, one strand shown; sample: in vitro; concentration: 2540 nM top; setting: 60-bp whole probe; together with: salmon DNA 0.4 mg/ml; reference: random background probes; direction: higher = stronger binding; constant ends, left off below: GCCTAGCAC … GTCTTGATTCGCTTGACGCTGCTG
Target: Interferon regulatory factor 3, full length, phosphomimetic (IRF3, Homo sapiens, UniProt Q14653, residues 1-427, S386D/S396D/S398D/S402D/T404D/S405D)
Sequence of UniProt Q14653 (whole entry, unmodified, looked up): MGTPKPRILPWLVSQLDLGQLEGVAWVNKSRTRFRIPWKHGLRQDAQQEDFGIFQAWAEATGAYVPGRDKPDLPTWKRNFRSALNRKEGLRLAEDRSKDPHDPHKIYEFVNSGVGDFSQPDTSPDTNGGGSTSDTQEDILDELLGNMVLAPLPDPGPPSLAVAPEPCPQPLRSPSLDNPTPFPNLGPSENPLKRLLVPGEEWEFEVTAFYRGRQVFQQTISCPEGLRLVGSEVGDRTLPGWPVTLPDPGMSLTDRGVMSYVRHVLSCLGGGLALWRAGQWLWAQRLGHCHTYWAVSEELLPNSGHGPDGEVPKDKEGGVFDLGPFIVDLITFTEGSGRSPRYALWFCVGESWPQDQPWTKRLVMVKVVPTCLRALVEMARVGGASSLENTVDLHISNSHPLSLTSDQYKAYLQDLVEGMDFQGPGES
`TCACTTCTGGTGCTCATCTGGTGCTAG`: “fitted relative affinity” 0.972 z-score.
Under “fitted relative affinity”, `GACGGTATCTTACTGCTGACGTGCTAG` is recorded as 0.333 z-score.
Under “fitted relative affinity”, `GACGATATCAGTTTAGAGACGTGCTAG` is recorded as 1.45 z-score.
`TTAGCACTGGGGTTTCGATTAGTGCTA`: “fitted relative affinity” 0.889 z-score.
`TCAGTTGTGATTCTTTCACTGTGCTAG`: “fitted relative affinity” 1.15 z-score.
Under “fitted relative affinity”, `GACGGACTGGTGTATCGGGACGTGCTA` is recorded as -0.325 z-score.
`TTAGAACTGGGGTATCGATCAGTGCTA`: “fitted relative affinity” -0.659 z-score.
Under “fitted relative affinity”, `GACGGACTGGTTTTCGGGACGTGCTAG` is recorded as 0.337 z-score.
For `TTAGATCTCAGTCTCGAGTAGTGCTAG`, “fitted relative affinity” read 0.529 z-score.
`TTAGGTATGCTTCTCCTTTAGTGCTAG` — result for “fitted relative affinity”: 0.373 z-score.
For `GATGGTATCGACTTTCGGGACGTGCTA`, “fitted relative affinity” read 1.04 z-score.
For `GACGGACTGGACTTTCGGCACGTGCTA`, “fitted relative affinity” read -0.238 z-score.
`GACGGTTTCCTACTGGTGACGTGCTAG`: “fitted relative affinity” 5.15 z-score.
Under “fitted relative affinity”, `GACGATCTCAGGTTCGAGACGTGCTAG` is recorded as 0.414 z-score.
`GACGGACTGGGGTATCTGGACGTGCTA`: “fitted relative affinity” -0.752 z-score.
`GACGGTTTAGACTATCGGGACGTGCTA` — result for “fitted relative affinity”: 0.468 z-score.
Under “fitted relative affinity”, `GACGGTCTCGGACTGGGCACGTGCTAG` is recorded as 0.045 z-score.
`TTAGGTAGCCTTTTCCTTTAGTGCTAG`: “fitted relative affinity” 3.46 z-score.
Under “fitted relative affinity”, `GACGGTATCCTTTTCCTGTCGTGCTAG` is recorded as 8.03 z-score.
`TTAGATTTCACTTTCGATTAGTGCTAG` — result for “fitted relative affinity”: 5.49 z-score.
`GACGGTATCGACACTCGGGACGTGCTA`: “fitted relative affinity” 0.596 z-score.
`GACGGACTGGGTATCGCGACGTGCTAG`: “fitted relative affinity” -0.593 z-score.
For `TTTTCACTTTCTTTAACTCAGTGCTAG`, “fitted relative affinity” read 4.38 z-score.

Sample 2 — technique: RNA Bind-n-Seq; form: RNA; sample: in vitro; concentration: 1 µM; setting: whole 134-nt RNA, ends assumed; together with: 150 mM KCl; reference: input library; direction: higher = stronger binding
Target: Ras GTPase-activating protein-binding protein 1, RRM domain (G3BP1, Homo sapiens, UniProt Q13283)
Sequence of UniProt Q13283 (whole entry, looked up): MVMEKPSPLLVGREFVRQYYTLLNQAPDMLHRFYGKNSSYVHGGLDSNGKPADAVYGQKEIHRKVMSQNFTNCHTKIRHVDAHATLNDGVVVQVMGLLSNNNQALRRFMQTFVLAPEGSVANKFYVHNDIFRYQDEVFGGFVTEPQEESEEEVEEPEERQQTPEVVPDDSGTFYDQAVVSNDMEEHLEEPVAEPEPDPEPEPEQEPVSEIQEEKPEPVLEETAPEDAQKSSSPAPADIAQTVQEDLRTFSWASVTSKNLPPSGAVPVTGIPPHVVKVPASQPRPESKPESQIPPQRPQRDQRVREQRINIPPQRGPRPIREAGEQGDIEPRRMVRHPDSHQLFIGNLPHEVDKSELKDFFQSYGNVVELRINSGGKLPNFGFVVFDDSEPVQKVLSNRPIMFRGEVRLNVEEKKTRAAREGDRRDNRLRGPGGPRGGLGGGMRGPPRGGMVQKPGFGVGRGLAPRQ
The log2 enrichment of `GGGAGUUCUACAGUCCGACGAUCCCUCAAGUCCUGUGCUACACAUCGUAUGUACCGAAUCGGGCGGGGCGGCGGGAAAGUAUUAUGUUACGCCGUUCGGAUCUGCACUUCCAGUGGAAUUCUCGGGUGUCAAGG` is reported as -0.171.
For `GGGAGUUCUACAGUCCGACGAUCCAAGUCCUGUGCUACACAUCGUAUGUACCGAAUCGGGUUUUUUUGGGAGGGAGGGAAAGUAUUAUGUUACGCCGUUCGGAUCUGCACUUCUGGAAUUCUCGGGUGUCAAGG`, the log2 enrichment was 0.562.
With `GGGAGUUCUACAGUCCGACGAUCGUGAAUCAAAAACUCUGGUUUUAAGCAACCUCUCCUACAGUGCAACAGAAGAAACUCUUCAGGAAGUAUUUGAGAAAGCAACUUUUAUCAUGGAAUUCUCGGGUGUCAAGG` the log2 enrichment was 0.123.
`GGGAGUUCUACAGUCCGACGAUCUCAAGUCCUGUGCUACACAUCGUAUGUACCGAAUCGGAGGAAAAAAAGGAAAGGAAAGUAUUAUGUUACGCCGUUCGGAUCUGCACUUCCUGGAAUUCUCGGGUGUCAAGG` gave a log2 enrichment of -0.0911.
`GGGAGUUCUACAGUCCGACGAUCUCUUUAUUUGAGCCAGUCUUGCAAGGUUAACUUCUCACUGGGCCUAGUGUGGUGCCCAGGUUUUUGCCUUGCUUCACUUCUGUCUCUACAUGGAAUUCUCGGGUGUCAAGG` gave a log2 enrichment of -0.495.
For `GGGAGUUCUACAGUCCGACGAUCCACAGACAACACGCACCAACACAGACACAGAGGGAAGGGGUUGGGAUGGGGACAGGGUGCACAGCAGGGCGGGGUAGGACCCCAGCCCCUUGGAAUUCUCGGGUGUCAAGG`, the log2 enrichment was 0.381.
For `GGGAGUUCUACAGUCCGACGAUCAGUCCUGUGCUACACAUCGUAUGUACCGAAUCGGGGUUUUUUUGGGGAGGGGAGGGGAAAGUAUUAUGUUACGCCGUUCGGAUCUGCACUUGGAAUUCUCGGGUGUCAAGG`, the log2 enrichment was 1.01.
For `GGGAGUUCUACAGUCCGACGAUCCUGUGCUACACAUCGUAUGUACCGAAUCGGGGUUUUUUGGGGUUUUUUGGGGUUUUUUGGGAAAGUAUUAUGUUACGCCGUUCGGAUCUGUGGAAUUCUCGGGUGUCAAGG`, the log2 enrichment was -0.132.
`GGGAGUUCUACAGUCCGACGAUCCACAGACAACACGCACCCACACAGACACAGAGGGAAGGGGUUGGGAUGGGGACUGGGUGCACAGCAGGGCGGGGUAGGACCCCAGCCCCUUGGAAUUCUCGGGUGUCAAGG` has a log2 enrichment of 0.416.
`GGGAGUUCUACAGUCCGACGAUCUGGCCCUGGUGGCAUGCGGGGAGGAAGAGGUGGACUCAUGGAUCGUGGUGGUCCCGGUGGAAUGUUCAGAGGUGGCCGUGGUGGAGACAGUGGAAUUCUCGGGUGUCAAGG` has a log2 enrichment of 0.7.
`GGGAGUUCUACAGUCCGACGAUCCCUCAAGUCCUGUGCUACACAUCGUAUGUACCGAAUCGGCCGGGCCGGGCCGGAAAGUAUUAUGUUACGCCGUUCGGAUCUGCACUUCCAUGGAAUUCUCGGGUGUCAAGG` has a log2 enrichment of -0.635.
For `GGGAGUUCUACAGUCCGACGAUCCACAGACAACACGCACCCUCACAGACACAGAGGGAAGGGGUUGGGAUGGGGACAGGGUGCACAGCAGGGCGGGGUAGGACCCCAGCCCCUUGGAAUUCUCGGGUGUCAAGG`, the log2 enrichment was 0.167.
`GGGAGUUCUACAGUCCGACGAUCGUCCUGUGCUACACAUCGUAUGUACCGAAUCAAACCCCCCCAAAUUUAAAUUUUUAAAAAAGUAUUAUGUUACGCCGUUCGGAUCUGCACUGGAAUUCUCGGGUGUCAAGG` has a log2 enrichment of -0.372.
With `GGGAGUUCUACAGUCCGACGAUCCACAGACAACACGCACCCACACAGACACAGAGGGAAGGGGUUGGGAUUGGGACAGGGUGCACAGCAGGGCGGGGUAGGACCCCAGCCCCUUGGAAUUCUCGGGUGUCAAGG` the log2 enrichment was -0.113.

Sample 3 — technique: protein binding microarray; form: double-stranded DNA, one strand shown; sample: in vitro; concentration: not given; reference: not given; direction: higher = stronger binding
Target: Histone acetyltransferase KAT6A, winged helix 2, GST fusion (KAT6A, Homo sapiens, UniProt Q92794, residues 85-181)
Setting: 8-mer, flanks averaged, mean of 2 arrays, mostly near background
Construct (chain): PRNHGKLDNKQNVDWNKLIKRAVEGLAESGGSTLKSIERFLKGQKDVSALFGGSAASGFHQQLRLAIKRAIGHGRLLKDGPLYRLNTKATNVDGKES
For `ATGGGTCA`, the E-score was -0.0818.
`AGATCACA` gave an E-score of -0.13.
`AAGTAGCT` gave an E-score of -0.177.
`AAGAAATA` has an E-score of 0.163.
`GTGATCCA` gave an E-score of -0.103.
For `CGAAATGC`, the E-score was -0.0196.
`ATCTAGCG` has an E-score of 0.0234.
`ACGGGAGC` gave an E-score of -0.0229.
The E-score of `GAGCAACA` is reported as 0.112.
For `GCCTGATA`, the E-score was 0.0106.
For `GCTCGTAA`, the E-score was -0.0697.
The E-score of `ATCTGGGC` is reported as 0.0275.
For `ACATGATA`, the E-score was 0.016.
The E-score of `CACCTGAG` is reported as -0.0216.
For `AATACACC`, the E-score was -0.108.
`AGCGTGCG` gave an E-score of 0.108.
The E-score of `CTGCGGCC` is reported as 0.172.

Sample 4 — technique: RNA Bind-n-Seq; form: RNA; sample: in vitro; concentration: 365 nM; reference: no-protein control; direction: higher = stronger binding
Target: RNA binding protein fox-1 homolog 2, RRM domain, GST-SBP tag (RBFOX2, Homo sapiens, UniProt O43251-10, residues 100-194)
Setting: natural RNA segment, single round, ends assumed
Construct (chain): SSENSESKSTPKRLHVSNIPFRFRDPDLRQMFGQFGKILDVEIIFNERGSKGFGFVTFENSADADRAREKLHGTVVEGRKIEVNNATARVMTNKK
For `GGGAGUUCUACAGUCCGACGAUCCCCUACCUCCGCCCCACCCCAUCAUCUGUGGACACUGGAGUCUGGAAUAAAUGCUGUUUGUCACAUCAACACCAUCCUGUGGCCAGAGCUUCCUCUGGGAGUAGGGAGGGUGGAAUUCUCGGGUGCCAA`, “RBNS enrichment (R)” read 0.348.
`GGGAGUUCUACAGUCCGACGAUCGUCCCCAAGCUUUCAGGCAGGCACUGAAACGCACCGAACUUCCACGCUCUGCUGGUCAGUGGCGGCUGUCCCCUCCCCAGCCCAGCCGCCCAGCCACAUGUGUCUGCCUGUGGAAUUCUCGGGUGCCAA` — result for “RBNS enrichment (R)”: 0.465.
Under “RBNS enrichment (R)”, `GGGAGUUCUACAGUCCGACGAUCGCUGGAUCCACCCCUGCGGAGCCCUGGGCCAGGCAGGUGUCUGCUGCUCACCUGGCUCUGGAGGGCUGCCCUGCAGCUGGGCCUGGGGACAGGUCGGCUGUGGGGCAGCUUGGAAUUCUCGGGUGCCAA` is recorded as 0.278.
For `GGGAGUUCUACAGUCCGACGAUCGUCUAUAAAGGCCAUUACAGACCCAAGGCUGUUUUGCAGUUUUCAUAUGUUGUUUGCUGAAGUCAUUGUAAUUUUUUUUGCCUGCUUUGCCUUUUUUUCUACAGGAGUUUUGGAAUUCUCGGGUGCCAA`, “RBNS enrichment (R)” read 1.8.
Under “RBNS enrichment (R)”, `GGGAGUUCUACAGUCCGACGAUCUUUUAAAAAGUAAGGUUUAAAGUCACAGCAGAUAGGAGAUUAAUGUUUUAUUGCCACAGAAAUUCUCUUUAAGAUCUGAGCUCUCCUGGUAAGAGUCUUUAUUAAAGUUUUGGAAUUCUCGGGUGCCAA` is recorded as 0.746.
`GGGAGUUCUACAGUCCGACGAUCCCUGAGCGAGUGUGUGAGCAUGCGGGGACAUGGGUGUGUAUGGCACACAUAGGUGCGUGUGUGUCUUUUGUAUUUUUUCUCCUCCAAGGAGCUGUGUCAGUGUGGACGUUUGGAAUUCUCGGGUGCCAA` — result for “RBNS enrichment (R)”: 7.39.
Under “RBNS enrichment (R)”, `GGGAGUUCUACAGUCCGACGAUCACAGCUUUUAACUAAGUUUGUUGUAGGAGAAAUGACUGCGGUAAUUUCCAGUUCUAUAAUGUUUCAUGUUGAGCCAAAAGAGUAUAUCUUGCACUUUAAAAACGCUGCGUUGGAAUUCUCGGGUGCCAA` is recorded as 0.558.
Under “RBNS enrichment (R)”, `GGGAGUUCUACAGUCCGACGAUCCCUCAGAGCCAGCCAUUGCUGGUGUCUGGAGUCUCCCAGACCACUCACUGCUUCUUGCCAGUUAUGACUGUCAUUCCCUUCGCACCAGCUGUACCACUCCCAGAGGUCUGUGGAAUUCUCGGGUGCCAA` is recorded as 0.472.
`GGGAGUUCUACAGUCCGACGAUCUUUCUCCCACAGGCCUCUCUUUCUUUCUAGGUUGCUGGGGAGAAAUGGGUACCCUAUGAUCCCCCUCCCCUUCUCCUCCAGUAAAUACCUGGAAGAGGGAACCUGAAUCCUGGAAUUCUCGGGUGCCAA`: “RBNS enrichment (R)” 0.382.
For `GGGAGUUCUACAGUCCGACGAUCAAUGAGAUAAUCCACAGUUAUUCAUUGUGGAGUUGUUGAGACUAUGAAAGACUCAUUGUCUUUGUAUUCAGCUCUUAAAUAGUGUAACUAUAUCCCCACCUCUGCUUGCUUGGAAUUCUCGGGUGCCAA`, “RBNS enrichment (R)” read 1.64.
For `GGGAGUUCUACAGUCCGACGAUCUAUAUAACAACAUAGAAUAACAACAACAGAAAAUGAUAAGUACAGAUAAAUGGUUAAUUGUUGGGGCUGGGAAAAUGGCCCAGUGGUUAAAAGUAUUCAUUCCUCUCGAGUGGAAUUCUCGGGUGCCAA`, “RBNS enrichment (R)” read 0.773.
`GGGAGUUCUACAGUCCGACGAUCACGCUCACUCAGUGCCCACUGGGUGCCAGGCUCUGGGCUCAACCCUCUAAUAUCCACACAUUCCAUCCCCCCAGCCCCAUGUAGAUGGUGGGGUUAAGACCAUUCUUCAGUGGAAUUCUCGGGUGCCAA`: “RBNS enrichment (R)” 0.3.
